Measurements pooled from the literature.
Each line is one published result; not all experiments were run side by side. ± marks the error that the study gave.
Medium: plasma

COC(=O)c1ccc2c(c1)NC(=O)/C2=C(\Nc1ccc(N(C)C(=O)CN2CCN(C)CC2)cc1)c1ccccc1
Cmax steady state (human moderate liver impairment; oral, 100 mg twice daily, geometric mean): 55.7 ng/mL

CCCC(CCC)C(=O)O
Cmax breakpoint (regression tree, item: hearing loss; human; intravenous): > 276000 ng/mL

CC(C)c1nc(N(C)S(C)(=O)=O)nc(-c2ccc(F)cc2)c1/C=C/[C@@H](O)C[C@@H](O)CC(=O)O
Cmax ratio (human; oral, together with: finerenone dosed 4.25 h after; relative to: with over without finerenone): 96.8%

CCn1c(C(=O)c2cc(C)cc(C#N)c2)c(C(C)C)c(=O)[nH]c1=O
Cmax at steady state (healthy humans; oral, 150 mg once daily, 7 days): 740 ± 248 ng/mL

O=C(NC[C@H]1CN(c2ccc(N3CCOCC3=O)cc2)C(=O)O1)c1ccc(Cl)s1
Cmax increase (human, normal renal function; oral, 10 mg, together with: erythromycin at steady state; relative to: same subjects, compound alone): ~40%

COc1cccc(-c2ccc(NC(=O)C3=C(C(=O)O)CCC3)c(F)c2)c1
Cmax accumulation ratio (male healthy human; oral, 50 mg daily, day 13-14, not pre-dosed; relative to: day 0-1): 2.16

CN(C)C/C=C/C(=O)Nc1cc2c(Nc3ccc(F)c(Cl)c3)ncnc2cc1O[C@H]1CCOC1
Cmax at steady state (human; oral, 10 mg once daily, day 27, geometric mean): 3.18 ng/mL

CC[C@@H]1C(=O)N(C)c2cnc(Nc3ccc(C(=O)N[C@H]4CC[C@H](N5CCN(CC6CC6)CC5)CC4)cc3OC)nc2N1C(C)C
Cmax geometric mean (human; intravenous infusion, 150 mg over 2 h, first infusion): 235 ng/mL
